Measured values collected from several papers.
Each numbered part is a random draw from the data of one study; scales do not carry over between parts. Changes are numbered by the printed parent chain.

Study 1
Target: ABI1, truncated, D143A, DHFR fusion (Arabidopsis thaliana)
Method: DHFR PCA, deep sequencing
Medium: yeast
Setting: methotrexate growth selection, single substitutions
With: (+)-ABA 0.11 µM
Relative to: wild-type fitted maximum
Direction: higher = stronger binding
Quantity: relative binding score
Parent: PYL1, truncated, DHFR fusion (Arabidopsis thaliana); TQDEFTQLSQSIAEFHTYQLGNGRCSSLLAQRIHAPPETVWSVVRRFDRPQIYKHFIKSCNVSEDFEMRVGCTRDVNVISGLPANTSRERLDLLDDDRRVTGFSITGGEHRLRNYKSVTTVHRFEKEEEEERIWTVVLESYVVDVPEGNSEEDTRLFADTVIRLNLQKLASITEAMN
V136R: 0.806%
N165T: 5.98%
T154A: 0.675%
V70P: 39.4%
I79Y: 33.7%
R69E: 31.7%
M176D: 13.7%
T39L: 51.2%
V137G: 0.962%
V121A: 6.82%
T173C: 71%
S140I: -0.564%
G81Y: -3.13%
V161W: 73.9%
R49D: -0.465%

Study 2
Target: CCNF, cyclin fold, Cln2 fusion (human)
Method: yeast growth competition, sequencing
Medium: yeast
Setting: weak parent motif
Relative to: not given
Direction: higher = stronger binding
Quantity: normalised enrichment score
Parent: MASTL docking peptide (human); PMIAKNLMCELDE; partner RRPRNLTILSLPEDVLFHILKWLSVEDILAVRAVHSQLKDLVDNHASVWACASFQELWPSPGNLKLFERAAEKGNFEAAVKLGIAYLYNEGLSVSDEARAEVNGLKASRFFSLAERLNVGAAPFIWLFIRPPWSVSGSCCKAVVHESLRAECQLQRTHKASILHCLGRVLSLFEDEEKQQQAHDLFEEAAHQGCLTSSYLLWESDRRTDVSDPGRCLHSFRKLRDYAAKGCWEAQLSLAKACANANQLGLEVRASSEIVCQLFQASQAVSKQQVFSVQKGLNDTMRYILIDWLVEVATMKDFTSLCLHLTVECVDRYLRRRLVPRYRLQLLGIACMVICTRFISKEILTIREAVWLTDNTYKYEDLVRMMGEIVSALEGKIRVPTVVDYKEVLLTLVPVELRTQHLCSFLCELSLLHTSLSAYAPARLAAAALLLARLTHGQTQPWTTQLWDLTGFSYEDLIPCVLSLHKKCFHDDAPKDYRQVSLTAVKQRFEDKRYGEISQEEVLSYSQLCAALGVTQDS
C9H: -0.379
N6C: 0.263
K5V: -0.284
K5W: -0.246
M2G: -0.118
A4N: 0.177
K5A: -0.433
N6H: 0.138
M8D: 0.229
M8V: -0.11
M8H: -0.311
L11C: -0.421
E10G: -0.165
E10C: 0.205
A4G: -0.195
M8F: 1.34
N6F: -0.382
I3P: -0.3
K5R: 1.71
M2K: 0.352
I3R: -0.179
C9I: -0.121
A4W: 0.506
E10A: 0.292
C9L: 0.659

Study 3
Target: UBE2Q1 UBC core domain (UniProt Q7Z7E8)
Method: yeast two-hybrid
Medium: yeast
Setting: mostly zero background
Relative to: not given
Direction: higher = stronger interaction
Quantity: lacZ reporter activity
B1: RUFY1 RING domain (UniProt Q96T51); chain QALKGHAWLKDDEATHCRQCEKEFSISRRKHHCRNCGHIFCNTCSSNELALPSYPKPVRVCDSCHTLLLQRCSSTAS
B2: TRIM11 RING domain (UniProt Q96F44); chain LSTNLQEEATCAICLDYFTDPVMTDCGHNFCRECIRRCWGQPEGPYACPECRELSPQRNLRP
B3: RING1 RING domain (UniProt Q06587); chain SPRSLHSELMCPICLDMLKNTMTTKECLHRFCSDCIVTALRSGNKECPTCRKKLVSKRSLR
B4: RNF103 RING domain (UniProt O00237); chain WPADMLHCTECVVCLENFENGCLLMGLPCGHVFHQNCIVMWLAGGRHCCPVCRWPSYKKKQPY
B5: ZNRF4 RING domain (UniProt Q8WWF5); chain VRTFTWHNDLCAICLDEYEEGDQLKILPCSHTYHCKCIDPWFSQAPRRSCPVCKQSVAATEDSF
B6: MARCHF1 RING domain (UniProt Q8TCQ1); chain TAPRSQSRLSVCPSTQDICRICHCEGDEESPLITPCRCTGTLRFVHQSCLHQWIKSSDTRCCELCKYDFIMETKLKPLRKWE
B7: ARIH2 RING domain (UniProt O95376); chain HVPTSHPPHHCAVCMQFVRKENLLSLACQHQFCRSCWEQHCSVLVKDGVGVGVSCMAQDCPLRTPEDFVF
Construct (chain): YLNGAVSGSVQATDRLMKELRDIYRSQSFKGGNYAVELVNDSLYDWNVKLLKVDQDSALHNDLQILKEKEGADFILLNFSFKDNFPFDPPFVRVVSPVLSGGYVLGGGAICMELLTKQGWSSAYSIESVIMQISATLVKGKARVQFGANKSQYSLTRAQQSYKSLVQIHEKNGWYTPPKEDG
B1 (RUFY1 RING domain): 0
B2 (TRIM11 RING domain): 0
ASEEEFQFLRCQQCQAEAKCPKLLPCLHTLCSGCLEASGMQCPICQAPWPLGADTP (PML RING domain (UniProt P29590)): 0
ASPKIFQKTKCSICNSALELPSVHFLCGHSFHQHCFESYSESDADCPTCLPENRKVMDMI (VPS11 RING domain (UniProt Q9H270)): 0
B3 (RING1 RING domain): 0
FDPPLESKYECPICLMALREAVQTPCGHRFCKACIIKSIRDAGHKCPVDNEILLENQLFP (TRAF6 RING domain (UniProt Q9Y4K3)): 0
LVKDFNPYITCYICKGYLIKPTTVTECLHTFCKTCIVQHFEDSNDCPRCGNQVHETNPLE (PCGF5 RING domain (UniProt Q86SE9)): 0
B4 (RNF103 RING domain): 0
EIKEYKARLTCPCCNTRKKDAVLTKCFHVFCFECVRGRYEARQRKCPKCNAAFGAHDFHR (RNF40 RING domain (UniProt O75150)): 0
B5 (ZNRF4 RING domain): 0
B6 (MARCHF1 RING domain): 0
B7 (ARIH2 RING domain): 0

Study 4
Target: Sal-like protein 4, full length isoform B (SALL4, Homo sapiens, UniProt Q9UJQ4-2, residues 1-616)
Method: universal PBM
Molecule type: double-stranded DNA, one strand shown
Medium: in vitro
Concentration: not given
Setting: 8-mer, flanks averaged, mean of replicates
Direction: higher = stronger binding
Quantity: E-score
Target sequence (chain): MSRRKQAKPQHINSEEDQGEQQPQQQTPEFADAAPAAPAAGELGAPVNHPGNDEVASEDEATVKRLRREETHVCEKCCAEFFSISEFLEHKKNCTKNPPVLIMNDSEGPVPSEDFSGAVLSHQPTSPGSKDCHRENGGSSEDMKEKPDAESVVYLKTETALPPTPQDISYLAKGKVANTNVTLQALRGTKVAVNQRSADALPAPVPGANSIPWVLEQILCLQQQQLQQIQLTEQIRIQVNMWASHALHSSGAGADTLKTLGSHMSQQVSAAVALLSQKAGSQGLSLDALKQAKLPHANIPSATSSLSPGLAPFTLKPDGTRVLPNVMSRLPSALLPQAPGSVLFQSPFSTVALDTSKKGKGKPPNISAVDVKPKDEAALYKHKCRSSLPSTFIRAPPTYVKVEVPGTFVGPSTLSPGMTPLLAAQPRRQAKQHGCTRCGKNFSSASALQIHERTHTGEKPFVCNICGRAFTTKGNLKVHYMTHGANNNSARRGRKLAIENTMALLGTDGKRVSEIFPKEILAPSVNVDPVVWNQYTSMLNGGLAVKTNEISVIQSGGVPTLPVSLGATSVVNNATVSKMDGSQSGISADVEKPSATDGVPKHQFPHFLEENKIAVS
AGTCTGAG: -0.175
CGTGTGCA: -0.113
CCGACGTC: -0.26
AGTTCCAG: -0.287
ACAAAGGA: 0.0744
GGAGTCAC: -0.22
CCGGAAAA: -0.0198
AGCTCAGA: -0.172
CTTGAGCA: -0.0821
CGCTCGAC: -0.332
AATAGTTC: 0.246
CCCCCGGC: -0.313
ACTCCCAA: 0.0356
CTACAGGC: -0.172
AATGAATT: 0.286
CTCTAGAA: -0.037
AGGGTTAG: -0.175
CAAGTTAG: -0.0257
CAACGGAA: 0.081

Study 5
Target: FOSB, bZIP domain (human)
Method: DHFR protein complementation
Medium: yeast
Setting: single substitutions, most at no-binding floor
Relative to: wild-type JUN-FOS pair
Direction: higher = stronger binding
Quantity: binding fitness
Parent: JUN, bZIP domain (human); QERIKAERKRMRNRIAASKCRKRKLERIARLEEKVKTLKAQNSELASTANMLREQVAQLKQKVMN
L38N: -1.33 natural log
L45W: -1.22 natural log
L45V: -1.21 natural log
L52T: -1.48 natural log
Q55P: -1.41 natural log
V56A: -1.22 natural log
L52P: -1.28 natural log
L45N: -1.34 natural log
A49N: -1.32 natural log
L45C: -1.46 natural log

Some of these lines once more (study 2):
M8H: -0.311
A4N: 0.177
E10G: -0.165
K5A: -0.433
M8D: 0.229
L11C: -0.421
M2G: -0.118
K5V: -0.284
M8V: -0.11
K5R: 1.71
M8F: 1.34
E10A: 0.292
